Published values from different studies.
Parts stem from different laboratories: compare values within a part only. Changes are numbered by the printed parent chain.

Block 1
Target: Prothrombin, mature alpha-thrombin (F2, Homo sapiens, UniProt P00734)
Technique: aptamer microarray, sandwich
Molecule type: DNA with 2'F-ANA
Medium: in vitro
Tested at: 200 nM
Notes: whole 15-mer aptamer, many near background
Added: Cy3 exosite-II aptamer, 400 nM
Reading: higher = stronger binding
Sequence: GGTTGGTGTGGTTGG
Modification	mean fluorescence intensity [a.u.]
2'F-ANA at 1 4 5 7 9 10 11 15	50.5
2'F-ANA at 1 4 10 11 12 13	55.3
2'F-ANA at 3 4 8 9 11 14	282
2'F-ANA at 1 2 5 6 7 8 12 15	135
2'F-ANA at 2 4 7 9 13 15	214
2'F-ANA at 3 5 6 7 8 11 14	59.9
2'F-ANA at 1 3 5 8 9 12 13	91.4
2'F-ANA at 5 7 9 10 13 15	45.5
2'F-ANA at 1 2 10 11 13 14 15	56.6
2'F-ANA at 1 3 4 6 8 10 11 13 14	51.5
2'F-ANA at 2 4 5 6 7 8 9 10 12 14	42.5
2'F-ANA at 5 9 10 12 14 15	45.9
2'F-ANA at 2 6 8 9 11 12 13 14 15	133
2'F-ANA at 1 3 4 5 6 10 11 12	50.9
2'F-ANA at 1 2 9 14	51.9
2'F-ANA at 1 3 4 6 7 8 11 12 13 14	82.9
2'F-ANA at 2 3 5 6 7 9 15	81.6
2'F-ANA at 3 4 5 8 13 14 15	49.7
2'F-ANA at 3 4 5 6 7 11 13	63
2'F-ANA at 1 2 9 10 12 15	78.6
2'F-ANA at 1 3 5 7 8 9 11 12 15	168
2'F-ANA at 3 5 8 10 11 12 13 14 15	51.2
2'F-ANA at 1 2 4 7 9 10 11 14 15	48.9
2'F-ANA at 1 3 4 6 9 10 12 14	73.7
2'F-ANA at 3 5 8 9 10 15	61.8

Block 2
Target: RNA binding protein fox-1 homolog 2, RRM domain, GST-SBP tag (RBFOX2, Homo sapiens, UniProt O43251-10, residues 100-194)
Technique: RNA Bind-n-Seq
Molecule type: RNA
Medium: in vitro
Tested at: 365 nM
Notes: natural RNA segment, single round, ends assumed
Reference: no-protein control
Reading: higher = stronger binding
Residues (chain): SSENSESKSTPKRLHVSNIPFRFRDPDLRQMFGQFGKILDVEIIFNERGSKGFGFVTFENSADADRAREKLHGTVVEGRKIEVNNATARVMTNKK
Sequence	RBNS enrichment (R)
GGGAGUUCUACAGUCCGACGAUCAGAAAUGCUGUAUUUAUUGAUAACAUUGGCUAGGAGACUGAUGGACUGGCACACUUUCCUGUUUUAAUUUAGAGCCUUUGAUUAUUCCAUAGAGACAACCUGUGUGCUUUUGGAAUUCUCGGGUGCCAA	0.592
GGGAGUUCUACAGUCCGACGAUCUCAAGCCUGCUUAAGCUACUUAUAGUUCAGGGUCCGCUUAACAAUUUAUAAGACUGUGUCUUGUUCACCAGUGAGAGAGGGCUGAGGUCAUUACUCACCUGGCACAGACGUGGAAUUCUCGGGUGCCAA	0.276
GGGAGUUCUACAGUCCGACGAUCUACACAUCCUUGUUCAGUUUUCUUUUGAUGACUAAGGCUCAGUACCAGCGAGCUGUAGGCCAUGUCACAGAACCGAGGCAGAGCAGUGCUUUGAGUAGGACAACAAGGAAUGGAAUUCUCGGGUGCCAA	0.407
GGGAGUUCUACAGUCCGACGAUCUGGCGGAGAGAAGAAAAUGGGAAAGACAUCUCACUGGUGCUUUUCUCUUUUGUUUUAGUGCCCCCCGCCCCCAUCCCUAUAAUAUCUGUAACUACUCCUAAAAAGGUUUUUGGAAUUCUCGGGUGCCAA	0.357
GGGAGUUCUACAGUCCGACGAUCAAAUAAACUGCCAGCAAACUUUCUAACUUGUAUUUUAACUGUUAAAGAAGAGAUUAAAAACUUCGGCUUUGGACAUGUCCACAUUAUGGACUGUCAUCUUAUUUUUAAAAUGGAAUUCUCGGGUGCCAA	0.927
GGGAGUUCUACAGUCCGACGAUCACUCUCCACUAAUUAUACUUAAAAGUCCAAAAAUUUUUUCUUUAGUAACAGACUUAGGUACUGCUAAGCAGUUAUUAACACAAUAUUCCUUAGUUUUCAUAUGUUGGUUAUGGAAUUCUCGGGUGCCAA	1.25
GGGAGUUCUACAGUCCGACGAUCGCUCUUUUAAGUGAAUUUUCAAAUGAAAUGAACUAUGCUUAUUGCUGGCACAUUGAUCCCAUUUCUGGAACAUUUCCUACUUCCAGAAUUCCGUAUGUUCCUUAGACAUUUGGAAUUCUCGGGUGCCAA	0.222
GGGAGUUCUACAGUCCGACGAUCAGGAUGGAGCUAGAAAGCUCAGAGUGGGCCAGAGCAGGGGUGUGACACUUGCAAAGACAGGGCUCUGACUCUGAUCCCUCCCAGGGAGCCUCCGACACCCAUCCCACUCCUGGAAUUCUCGGGUGCCAA	0.448
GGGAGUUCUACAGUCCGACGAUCAGCCCCACGGGUCCACGAUGUACAAAAUCAUUUUGACCAGCAGGUCUGCAGACCCUUCCCCCACUGCUCAAAGUCCUCCCGUGCUUGGUGUGUGGGACCACCGGCUCCACUGGAAUUCUCGGGUGCCAA	0.207
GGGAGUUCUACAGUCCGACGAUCUUGCUGUCUGAGAUAUCCUUCAUAGUAUUCCAUGGCUCCCAUACUGCAGUCUAGUUAAGCAAAGAACUCUCACUAGAAAGGUUUAUUUCAGCCGGGUGUGGUGGUGGUGCUGGAAUUCUCGGGUGCCAA	0.606
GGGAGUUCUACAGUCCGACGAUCUGCCAUCAACAUUGCUUGAAAUGCCUCUAUGUUCUGAAUAAAGAAAAACCAUAAUUGCUUGUGGUGAAACGAAGCAGUCUUCAUGUUAAGUAGCAAUGGUUAUUUUUAUUUGGAAUUCUCGGGUGCCAA	0.385
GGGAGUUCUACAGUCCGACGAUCACUUUUUAAAGAAAAAAAAACAUGAGGGAAUAAAAGAAAUUCCUAUCAAAAAUCAAAGUGAAAUAAUACCAUCCAGCACUUAACUCUCAGGUCCCAACUAAGUCUGGCCUUGGAAUUCUCGGGUGCCAA	0.727

Block 3
Target: ABI1, truncated, D143A, DHFR fusion (Arabidopsis thaliana)
Technique: DHFR PCA, deep sequencing
Medium: yeast
Notes: methotrexate growth selection, single substitutions
Added: (+)-ABA 1.4 µM
Reference: wild-type fitted maximum
Reading: higher = stronger binding
Parent: PYL1, truncated, DHFR fusion (Arabidopsis thaliana); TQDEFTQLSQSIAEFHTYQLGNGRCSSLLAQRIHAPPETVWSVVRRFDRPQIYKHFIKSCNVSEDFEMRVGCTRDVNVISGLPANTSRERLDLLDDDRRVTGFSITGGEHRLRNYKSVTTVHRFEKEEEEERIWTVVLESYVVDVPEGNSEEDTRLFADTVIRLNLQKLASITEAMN; partner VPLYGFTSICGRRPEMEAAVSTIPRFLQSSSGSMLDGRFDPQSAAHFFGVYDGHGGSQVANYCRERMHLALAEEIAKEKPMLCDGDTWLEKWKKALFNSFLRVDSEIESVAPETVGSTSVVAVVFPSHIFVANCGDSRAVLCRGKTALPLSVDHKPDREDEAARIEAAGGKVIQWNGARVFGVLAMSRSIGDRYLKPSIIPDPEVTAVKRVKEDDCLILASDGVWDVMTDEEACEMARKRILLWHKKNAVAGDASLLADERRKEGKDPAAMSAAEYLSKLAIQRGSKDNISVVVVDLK
Substitution	relative binding score [%]
L82C	9.71
I172G	-19.5
W41G	-7.63
D96I	3.19
I172C	7.89
G148K	-23.5
R113G	15.7
R98K	63.3
V142I	49.3
V145P	-18.8
P146I	-0.619
H122Y	5.62
S11M	49.5
S42W	-1.64
H34C	68.5
S171A	64
R113V	48.1
A30M	74.2
E67V	63.7
S59D	54
E89D	7.5
E147N	34.1
V43G	-18.5
E130L	41
I172P	-13.5

Block 4
Target: CCNF, cyclin fold, Cln2 fusion (human)
Technique: yeast growth competition, sequencing
Medium: yeast
Notes: strong parent motif
Reference: not given
Reading: higher = stronger binding
Parent: NPAT docking peptide (human); PCHRRVLCFDSTT
Substitution	normalised enrichment score
R5A L7A	0.471
C2A	4.76
R5K	2.47
P1A	4.56
T13A	3.6
S11A	3.8
R5A	0.257
R4A	4.06
H3A	8.53
F9L	0.562

Repeated from above (block 4):
Substitution	normalised enrichment score
R5A L7A	0.471
C2A	4.76
R5K	2.47
P1A	4.56
T13A	3.6
S11A	3.8
R5A	0.257
R4A	4.06
H3A	8.53
F9L	0.562
